Results gathered from unrelated publications.
Every numbered part comes from another study and shows a few of its results, in no order.

Block 1 — method: protein binding microarray; molecule type: double-stranded DNA, one strand shown; medium: in vitro; concentration: not given; relative to: not given; reading: higher = stronger binding
Target: Histone acetyltransferase KAT6A, winged helix 2, GST fusion (KAT6A, Homo sapiens, UniProt Q92794, residues 85-181)
Setting: 8-mer, flanks averaged, mean of 2 arrays, mostly near background
Target sequence (chain): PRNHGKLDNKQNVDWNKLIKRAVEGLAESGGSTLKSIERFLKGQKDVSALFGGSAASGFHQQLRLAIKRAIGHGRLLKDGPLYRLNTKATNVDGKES
Strand | E-score
CACTGCGC | 0.0618
CTGGTGGC | 0.0691
AATGATGC | 0.0946
GAAGACGA | 0.109
GAGCACAA | 0.047
GCAGTGAA | 0.0778
ATCTCTAC | -0.0746
GCTCGGCC | 0.167
ATCGTCAC | 0.0622
GAGTGTAC | -0.101
GAATGGAA | 0.155
AAGTGGTC | 0.055
CGACCAAC | -0.0338
GCCGACGA | 0.109
CTTCATGA | 0.0975
TACAACAA | -0.0775
CGGCATAC | 0.105
CATGTGCC | -0.0398
ACGCTTTG | -0.134
CAGGGATA | -0.0834
AAATCGGT | -0.0379
CGCCGATA | 0.0773

Block 2 — method: RNA Bind-n-Seq; molecule type: RNA; medium: in vitro; concentration: 365 nM; relative to: no-protein control; reading: higher = stronger binding
Target: RNA binding protein fox-1 homolog 2, RRM domain, GST-SBP tag (RBFOX2, Homo sapiens, UniProt O43251-10, residues 100-194)
Setting: natural RNA segment, single round, ends assumed
All sequences stand within: GGGAGUUCUACAGUCCGACGAUC … UGGAAUUCUCGGGUGCCAA
Residues (chain): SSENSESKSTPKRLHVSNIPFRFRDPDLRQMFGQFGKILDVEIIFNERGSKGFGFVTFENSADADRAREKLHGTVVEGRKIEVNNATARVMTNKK
Strand | RBNS enrichment (R)
ACGCCUGGGGGUCCUAGAGGCUGCCCCACCCCAGUGAUUGGGUAGCAGCUCACAUCCCACCCAGCUUCACAAGUGAGGAACCCAGGUGCAUCGGGAGACCCUCGGGGGCU | 0.531
ACAUGGUGGUGGAAGGUAGAAAUCUUUGGGAUACUUAGACUUCAAGUCUUUUACAAGAGGGACAACCCUAUUUUGGGAAACAAUAUCUCAUGGGAAGAAAACUGUACACA | 0.267
UACCUAAACUCAUGAUGUCUGUGGUGCUGUAAAAUUUAUACUAAAAUGUGGACUAUUUUGAAAUUAUAACCAUUUUUGAUGCCCUGAAUCUUGAGGUGACUUAUUUUGCA | 5.19
CACAAACUGCUUCCUUUCUUGAUUCGUAGAUUUAAUAACUUACCUGAAGGGGUUUUCUUGAUAAUUUUCCUUUAAUAUGAAAUUUUUUUUCAUGCUUUAUCAAUAGCCCA | 1.9
GUCCCUGCGGCUGUUCCCCUCCUCUGCUCUCUCCCUGGAGAGGACUGCCAGCUCUUAAGAAACAUUCCUGGUGCGGUGUCUGCAGUGCCCUUUGUGGGUGACUUCAGGCU | 0.5
CUUGUUGGCCUGCUGGGUAGAACCUUUGCUUCAGGCUUCAUGCUCACAGCUUCCUGUCCUUUGCCCUUGACUGUACUGAGUAUGUGGGUGGUUGACCCAUAUAGGCCAUG | 0.437
UAAGAAAAGCUUGGUAGGAGCUUGCUGCUAUGGAGGAAAGAACAUAUUAAAAACUUAUUUUCCCUCGGGUUUGUUCUCGUUUUAUGUUUUUGUUGUUGUUGUUUUGUUAG | 0.638
AGCCCCUGAGAACCCCAUCUUCCCCUGGUUCUCUUGCCCACUCCCCUGCUGGGGCUCCUUCCUGGCACUGAGGAGGGGCGCUCCCAAUGCUGUGAGGCAGCGGGGAGGGA | 0.324

Block 3 — method: RNA Bind-n-Seq; molecule type: RNA; medium: in vitro; concentration: 1 µM; setting: whole 134-nt RNA, ends assumed; together with: 150 mM KCl; relative to: input library; reading: higher = stronger binding
Target: Ras GTPase-activating protein-binding protein 1, C-terminal RGG region (G3BP1, Homo sapiens, UniProt Q13283)
UniProt Q13283, sequence (whole entry, looked up): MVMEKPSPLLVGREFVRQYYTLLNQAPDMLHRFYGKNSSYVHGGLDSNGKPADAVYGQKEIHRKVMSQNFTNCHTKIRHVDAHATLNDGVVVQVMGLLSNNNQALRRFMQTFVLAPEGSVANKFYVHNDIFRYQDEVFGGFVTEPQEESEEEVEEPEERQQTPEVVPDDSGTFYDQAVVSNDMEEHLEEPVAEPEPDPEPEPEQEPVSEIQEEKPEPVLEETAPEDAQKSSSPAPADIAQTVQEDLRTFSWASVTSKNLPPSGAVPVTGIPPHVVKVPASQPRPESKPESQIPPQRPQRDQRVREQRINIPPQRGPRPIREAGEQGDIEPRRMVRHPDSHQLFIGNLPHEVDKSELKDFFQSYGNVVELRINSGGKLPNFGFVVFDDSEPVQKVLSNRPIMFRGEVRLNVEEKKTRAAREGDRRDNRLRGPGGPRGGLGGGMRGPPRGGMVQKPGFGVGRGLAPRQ
All sequences stand within: GGGAGUUCUACAGUCCGACGAUC … UGGAAUUCUCGGGUGUCAAGG
Strand | log2 enrichment
AGUCCUGUGCUACACAUCGUAUGUACCGAAUCGGGGUUUUUGGGGUUUGGGGAGGGGAAAGUAUUAUGUUACGCCGUUCGGAUCUGCACU | 3.27
UGGGAGGUGGAUUUUGUUUAUGUUUUUAGCUCAUUUCCAGGGGUGGGAAUUUUUUUUUAAUAUGUGUCAUGAAUAAAGUUGUUUUUGAAA | 3.04
AAGUCCUGUGCUACACAUCGUAUGUACCGAAUCGGGAAAGGGAGGGAAAAAAAGGGAAAGUAUUAUGUUACGCCGUUCGGAUCUGCACUU | -0.135
CAAGUCCUGUGCUACACAUCGUAUGUACCGAAUCGGGAAAAGGAAAAGGAAAAGGAAAGUAUUAUGUUACGCCGUUCGGAUCUGCACUUC | -1.84
UCAAGUCCUGUGCUACACAUCGUAUGUACCGAAUCGGUUUUUUUGGUGGAAAGGAAAGUAUUAUGUUACGCCGUUCGGAUCUGCACUUCC | -1.19
GUCCUGUGCUACACAUCGUAUGUACCGAAUCAAACCCCCAAACCCCCAAACCCCCAAAAAAGUAUUAUGUUACGCCGUUCGGAUCUGCAC | -1.02
UCCUGUGCUACACAUCGUAUGUACCGAAUCGGCCCCCCGGGGCCCCCCGGGCCCCCCGGGAAAGUAUUAUGUUACGCCGUUCGGAUCUGC | -1.64
AGUCCUGUGCUACACAUCGUAUGUACCGAAUCAAAUUUUUAAACCCCCAAAUUUAAAAAAGUAUUAUGUUACGCCGUUCGGAUCUGCACU | -1.16
UGGGAGGUGGAUUUUGUUUAUUUUUUUAGCUCAUUUCCAGGGGUGGGAAUUUUUUUUUAAUAUGUGUCAUGAAUAAAGUUGUUUUUGCAA | 2.54

Block 4 — method: protein-binding microarray; molecule type: double-stranded DNA, one strand shown; medium: in vitro; concentration: 250 nM; setting: 60-bp whole probe; together with: salmon DNA 0.4 mg/ml; relative to: random background probes; reading: higher = stronger binding; all sequences stand within: GCCTAGCAC … GTCTTGATTCGCTTGACGCTGCTG
Target: Interferon regulatory factor 5, full length, phosphomimetic (IRF5, Homo sapiens, UniProt Q13568-2, residues 1-514, K96S/S451D/S453D/S456D/S462D)
Strand | log fluorescence [z-score]
CTAATATTGAGACTCATGGGGTGCTAG | 0.0553
TCAGGTAGCCTTATCCCACTGTGCTAG | -0.425
TTAGATTTCGGACTGGATTAGTGCTAG | 2.4
CAGTAGATGGCGCCTGAGAGGTGCTAG | -0.541
TCATCTATGTCTGTTTTACTGTGCTAG | 1.02
GACGATTTCAGTTTCGAGCCGTGCTAG | 5.92
TTAGATACCGGGACTGGATTAGTGCTA | 0.00186
ATAGGTTTCCTTCTCCTTTAGTGCTAG | 0.864
TAAGGACTGGACTATCGGTTAGTGCTA | 5.71
TTAGATCTCCGACTGGATTAGTGCTAG | -0.0326
TTAGGTATCGGGACTAGGTTAGTGCTA | 1.77
ATGCTTCTGGTCTTCTGGGCGTGCTAG | 0.116
TTAGGTCCCCTACTGCTTTAGTGCTAG | -0.31
GTAGATTCCAGTTTCGATTAGTGCTAG | 9.36
GACGGACTGCTACTGCCGACGTGCTAG | -0.455
TTAGGTTTCGGTCTCGGTTGGTGCTAG | 10.3
GACGGTCTCGGTCTCGGGTCGTGCTAG | 0.512
TTAGAACTGGGGTTTCGATGAGTGCTA | 3.78
TCTCCTCCCCCTCTGCCACCGTGCTAG | -0.398

Excerpt of the above (block 3):
Strand | log2 enrichment
AGUCCUGUGCUACACAUCGUAUGUACCGAAUCGGGGUUUUUGGGGUUUGGGGAGGGGAAAGUAUUAUGUUACGCCGUUCGGAUCUGCACU | 3.27
UGGGAGGUGGAUUUUGUUUAUGUUUUUAGCUCAUUUCCAGGGGUGGGAAUUUUUUUUUAAUAUGUGUCAUGAAUAAAGUUGUUUUUGAAA | 3.04
AAGUCCUGUGCUACACAUCGUAUGUACCGAAUCGGGAAAGGGAGGGAAAAAAAGGGAAAGUAUUAUGUUACGCCGUUCGGAUCUGCACUU | -0.135
CAAGUCCUGUGCUACACAUCGUAUGUACCGAAUCGGGAAAAGGAAAAGGAAAAGGAAAGUAUUAUGUUACGCCGUUCGGAUCUGCACUUC | -1.84
UCAAGUCCUGUGCUACACAUCGUAUGUACCGAAUCGGUUUUUUUGGUGGAAAGGAAAGUAUUAUGUUACGCCGUUCGGAUCUGCACUUCC | -1.19
GUCCUGUGCUACACAUCGUAUGUACCGAAUCAAACCCCCAAACCCCCAAACCCCCAAAAAAGUAUUAUGUUACGCCGUUCGGAUCUGCAC | -1.02
UCCUGUGCUACACAUCGUAUGUACCGAAUCGGCCCCCCGGGGCCCCCCGGGCCCCCCGGGAAAGUAUUAUGUUACGCCGUUCGGAUCUGC | -1.64
AGUCCUGUGCUACACAUCGUAUGUACCGAAUCAAAUUUUUAAACCCCCAAAUUUAAAAAAGUAUUAUGUUACGCCGUUCGGAUCUGCACU | -1.16
UGGGAGGUGGAUUUUGUUUAUUUUUUUAGCUCAUUUCCAGGGGUGGGAAUUUUUUUUUAAUAUGUGUCAUGAAUAAAGUUGUUUUUGCAA | 2.54
